Measured values pooled from the literature.
Lines come from different studies, so protocols differ. “And” joins repeats or separate records; there may be more than shown. ± marks the error that the study gave.
rep nsp13 helicase: Replicase polyprotein 1ab, nsp13 helicase (rep, Severe acute respiratory syndrome coronavirus 2, UniProt P0DTD1)
rep methyltransferase: Replicase polyprotein 1ab, methyltransferase (rep, Severe acute respiratory syndrome coronavirus 2, UniProt P0DTD1)
rep papain-like protease: Replicase polyprotein 1ab, papain-like protease (rep, Severe acute respiratory syndrome coronavirus 2, UniProt P0DTD1)
rep main protease: Replicase polyprotein 1ab, main protease (rep, Severe acute respiratory syndrome coronavirus 2, UniProt P0DTD1)
rep nsp14: Replicase polyprotein 1ab, nsp14 (rep, Severe acute respiratory syndrome coronavirus 2, UniProt P0DTD1)

The IC50 of `N#C/C(=C\c1ccc(O)c([N+](=O)[O-])c1)c1nc2ccccc2s1` is reported as > 150 µM (rep nsp13 helicase; helicase ATPase activity, inhibitor, Kinase-Glo luminescence).
The IC50 of `O=C1c2c(O)ccc(O)c2C(=O)c2c(NCCNCCO)ccc(NCCNCCO)c21` is reported as < 10 µM and 4.9 µM (rep methyltransferase; enzyme activity, inhibitor; pH 7.5).
The IC50 of `CCC(C(=O)Nc1cc(NC2CCOCC2)ccc1C)n1cccc2nc(SCc3ccc(F)cc3)nc1-2` (stereo not shown) is reported as 0.672 µM (rep papain-like protease; enzyme activity, inhibitor).
With `CCn1c[n+](CC)c2ccccc21.[Ag][I]` the IC50 was > 50 µM (rep main protease; enzyme activity, inhibitor).
For `Cn1c(CCCC(=O)O)nc2cc(N(CCCl)CCCl)ccc21`, the IC50 was 26.6 to 40.1 µM (rep nsp14; methyltransferase activity, inhibitor, RapidFire MS, item: SAH).
For `CN1CCCC(n2nc(Cc3ccc(Cl)cc3)c3ccccc3c2=O)CC1` (stereo not shown), the IC50 was 20 to 100 µM (rep main protease; enzyme activity, inhibitor, FRET).
`N#Cc1sc2nc(-c3ccccc3)cc(-c3ccco3)c2c1N` has an IC50 of > 100 µM (rep nsp13 helicase; helicase ATPase activity, inhibitor, Kinase-Glo luminescence).
`CC(=O)c1cccc(NC(=O)c2cc3c(=O)n4ccccc4nc3n2C)c1` gave an IC50 of 5.43 µM (rep main protease; 3CL protease activity).
`CCOc1cccc(C2C(C(=O)c3ccc(C)o3)=C(O)C(=O)N2Cc2ccccc2)c1` (stereo not shown) has an IC50 of 40 µM (rep nsp13 helicase; helicase ATPase activity, inhibitor, Kinase-Glo luminescence; 60 min, added: 2.5 µM ATP).
With `CC(=O)N[C@@H](CS)C(=O)O` the IC50 was > 150 µM (rep nsp13 helicase; helicase ATPase activity, inhibitor; based on Bi content).
`CCC(C(=O)Nc1ccccn1)n1cccc2nc(SCc3ccc(F)cc3)nc1-2` (stereo not shown) has an IC50 of > 20 µM (rep papain-like protease; enzyme activity, inhibitor).
For `CC(=O)Oc1cccc2c1C(=O)c1c(OC(C)=O)cc(C(=O)O)cc1C2=O`, the IC50 was 40.7 to 80.4 µM (rep nsp14; methyltransferase activity, inhibitor, RapidFire MS, item: SAH).
Under “anaemia TEAE, Moderate severity”, `Cn1cnc(Cn2c(=O)[nH]/c(=N\c3cc4cn(C)nc4cc3Cl)n(Cc3cc(F)c(F)cc3F)c2=O)n1` is recorded as 0% (human, mild renal impairment; oral, 375 mg).
`Nc1ncnc2c([C@@H]3N[C@H](CO)[C@@H](O)[C@H]3O)c[nH]c12` gave an inhibition of 57.2% (Junin virus; viral replication; HeLa, Romero; 50 µM).
With `Cc1cccc(C)c1OCC(=O)N[C@@H](Cc1ccccc1)[C@@H](O)C[C@H](Cc1ccccc1)NC(=O)[C@H](C(C)C)N1CCCNC1=O` the IC50 was 0.224 µM (rep main protease; enzyme activity, inhibitor).
`CC1=C(C#N)c2nc(N)c(C#N)c(C)c2/C1=C/c1ccc(-c2cccc(C(=O)O)c2)o1` has an IC50 of 11 µM (rep nsp13 helicase; helicase ATPase activity, inhibitor, Kinase-Glo luminescence; 60 min, added: 2.5 µM ATP).
With `Cc1ccc(NC2CNC2)cc1NC(=O)C(C)n1cccc2nc(SCc3ccc(F)cc3)nc1-2` (stereo not shown) the IC50 was 0.714 µM (rep papain-like protease; enzyme activity, inhibitor).
The IC50 of `CC1CC(c2ccc(C(=O)O)cc2)=NN1c1ccc(C#N)c(Cl)c1` (stereo not shown) is reported as 5.01 µM (rep methyltransferase; enzyme activity, inhibitor).
For `CCOC(=O)c1ccc(OC(=O)CCCCCN=C(N)N)cc1.CS(=O)(=O)O`, the inhibition was 0.692% (rep main protease; reporter gene (Gaussia luciferase), inhibitor; 20 µM).
For `O=C1NC(=S)N(C2CC2)C(=O)/C1=C/c1ccc2c(c1)CCN2CCCCl`, the IC50 was 29 µM (rep nsp13 helicase; helicase ATPase activity, inhibitor, Kinase-Glo luminescence).
`CCn1ccc(-c2cc(-c3cnn(C)c3)cc([C@@H](C)NC(=O)c3ccccc3CCC(=O)NCC(=O)CF)c2)n1` has an IC50 of > 10 µM (rep papain-like protease; enzyme activity, inhibitor).
`Cc1ccc(C(CCN(Cc2ccccc2)C(=O)c2ccco2)c2ccco2)cc1` (stereo not shown) has an IC50 of 20 µM (rep nsp13 helicase; helicase ATPase activity, inhibitor, Kinase-Glo luminescence; 60 min, added: 2.5 µM ATP).
With `Cc1cc(C(=O)NC2CCCc3c2[nH]c2ccccc32)c2c(C)noc2n1` (stereo not shown) the IC50 was > 250 µM (rep methyltransferase; enzyme activity, inhibitor).
With `N#Cc1ccc(N2N=C(c3ccc(C(=O)O)cc3)CC2C2CCCCC2)cc1Cl` (stereo not shown) the IC50 was > 100 µM (rep methyltransferase; enzyme activity, inhibitor).
The IC50 of `Oc1ccc2ccccc2c1SSc1c(O)ccc2ccccc12` is reported as 10.1 µM (rep methyltransferase; enzyme activity, inhibitor).
`COC(=O)c1ccc2c(c1)C(C)(C)C(/C=C/c1ccc(OC)c(OC)c1OC)=[N+]2C` has an IC50 of > 150 µM (rep nsp13 helicase; helicase ATPase activity, inhibitor, Kinase-Glo luminescence).
`CCC(C(=O)Nc1ccccc1C)n1cccc2nc([S+]([O-])Cc3ccc(F)cc3)nc1-2` (stereo not shown) gave an IC50 of 16.3 µM (rep papain-like protease; enzyme activity, inhibitor).
For `Cc1nn(-c2ccc(Cl)cc2)c2c1C(c1ccc(Cl)cc1Cl)C(C#N)=C(N)O2` (stereo not shown), the IC50 was 84.3 µM (rep main protease; 3CL protease activity; 90 min).
`CCC(C(=O)Nc1ccccc1OC)n1c(SCc2ccc(F)cc2)nc2ncccc21` (stereo not shown) gave an IC50 of 16.6 µM (rep papain-like protease; enzyme activity, inhibitor).
The IC50 of `COc1ccc2c(c1)n(C(C)C)c[n+]2C(C)C.[Ag][I]` is reported as > 50 µM (rep main protease; enzyme activity, inhibitor).
`CC[C@H](CC[C@@H](C)[C@H]1CC[C@H]2[C@@H]3CC=C4C[C@@H](O)CC[C@]4(C)[C@H]3CC[C@]12C)C(C)C` gave an IC50 of 88.2 ± 3.75 µM (rep main protease; enzyme activity, inhibitor; added: fluorogenic substrate).
With `Cc1ccc(/N=C/c2cc(Cc3ccccc3Cl)cc([N+](=O)[O-])c2O)c(O)c1` the IC50 was 45 µM (rep nsp13 helicase; helicase ATPase activity, inhibitor, Kinase-Glo luminescence).
For `CC1CC(c2ccc(C(=O)O)cc2)=NN1c1cccc(Cl)c1` (stereo not shown), the IC50 was 7.94 µM (rep methyltransferase; enzyme activity, inhibitor).
`Cc1ccc(NC(=O)C2(c3ccc4c(c3)OC(F)(F)O4)CC2)nc1-c1cccc(C(=O)O)c1` gave an IC50 of > 100 µM (Replicase polyprotein 1ab, helicase (rep, Severe acute respiratory syndrome coronavirus 2, UniProt P0DTD1); enzyme activity, inhibitor).
`CC(C)n1cc(C(=O)NC2CCCc3c2[nH]c2ccccc32)c2ccccc2c1=O` (stereo not shown) gave an IC50 of 75.2 µM (rep methyltransferase; enzyme activity, inhibitor).
The IC50 of `CCC(C(=O)Nc1cc(NC2CCNCC2)ccc1C)n1cc(Br)cc2nc(SCc3ccc(F)cc3)nc1-2` (stereo not shown) is reported as 0.052 µM (rep papain-like protease; enzyme activity, inhibitor).
With `Oc1c(Cl)cc(Cl)c(Cl)c1Cc1c(O)c(Cl)cc(Cl)c1Cl` the IC50 was < 10 µM (rep methyltransferase; enzyme activity, inhibitor; pH 7.5).
With `Cc1c(S(=O)(=O)N2CCC(C)CC2)cc(C(=O)NCc2cccnc2N2CCC2)n1C` the IC50 was 0.044 µM (rep nsp14; inhibitor).
With `CCC(C(=O)Nc1ccccc1C)n1cccc2nc(SCc3cccc(F)c3)nc1-2` (stereo not shown) the IC50 was 4.16 µM (rep papain-like protease; enzyme activity, inhibitor).
`CCC[C@@]1(CCc2ccccc2)CC(O)=C([C@H](CC)c2cccc(NS(=O)(=O)c3ccc(C(F)(F)F)cn3)c2)C(=O)O1` gave an IC50 of 3.23 ± 0.14 µM (rep main protease; enzyme activity, inhibitor; added: fluorogenic substrate).
`N#Cc1ccc(N2N=C3c4ccc(O)cc4CCC3C2C2CCCC2)cc1Cl` (stereo not shown) has an IC50 of 5.01 µM (rep methyltransferase; enzyme activity, inhibitor).
With `Cl.Cl.Cl.Cl.Cl.Cl.N.N.N.N.N.N.N.N.N.N.N.N.N.N.[O-2].[O-2].[Ru+3].[Ru+3].[Ru+4]` the IC50 was < 10 µM (rep methyltransferase; enzyme activity, inhibitor; pH 7.5).
With `CC[C@H](C)[C@H](NC(=O)[C@H](CC(C)C)NC(=O)[C@H](Cc1c[nH]c2ccccc12)NC(=O)[C@H](CCC(N)=O)NC(=O)[C@@H](NC(=O)[C@H](Cc1ccccc1)NC(=O)[C@H](C)NC(=O)[C@H](CCCCNC(=O)COCCOCCNC(=O)COCCOCCNC(=O)CC[C@H](NC(=O)CCCCCCCCCCCCCCCCCCC(=O)O)C(=O)O)NC(=O)[C@H](CCC(N)=O)NC(=O)[C@H](C)NC(=O)[C@@H](NC(=O)[C@H](CCCCN)NC(=O)[C@H](CC(=O)O)NC(=O)[C@H](CC(C)C)NC(=O)C(C)(C)NC(=O)[C@@H](NC(=O)[C@H](CO)NC(=O)[C@H](Cc1ccc(O)cc1)NC(=O)[C@H](CC(=O)O)NC(=O)[C@H](CO)NC(=O)[C@@H](NC(=O)[C@H](Cc1ccccc1)NC(=O)[C@@H](NC(=O)CNC(=O)[C@H](CCC(=O)O)NC(=O)C(C)(C)NC(=O)[C@@H](N)Cc1ccc(O)cc1)[C@@H](C)O)[C@@H](C)O)[C@@H](C)CC)[C@@H](C)CC)C(C)C)C(=O)N[C@@H](C)C(=O)NCC(=O)NCC(=O)N1CCC[C@H]1C(=O)N[C@@H](CO)C(=O)N[C@@H](CO)C(=O)NCC(=O)N[C@@H](C)C(=O)N1CCC[C@H]1C(=O)N1CCC[C@H]1C(=O)N1CCC[C@H]1C(=O)N[C@@H](CO)C(N)=O` the serum AST was 31.8 ± 33.5 U/L (healthy subjects, single ascending dose; 2.5 mg, day 29).
`CC1CC(c2cccc(C(=O)O)c2)=NN1c1ccc(C#N)c(Cl)c1` (stereo not shown) gave an IC50 of 3.45 µM (rep methyltransferase; enzyme activity, inhibitor).
With `CC[C@@]1(O)C[C@H](O[C@H]2C[C@H](N(C)C)[C@H](O[C@H]3C[C@H](O)[C@H](O[C@H]4CCC(=O)[C@H](C)O4)[C@H](C)O3)[C@H](C)O2)c2c(cc3c(c2O)C(=O)c2c(O)cccc2C3=O)[C@H]1C(=O)OC` the IC50 was 0.383 µM (Replicase polyprotein 1ab, nsp12 RdRp (rep, Severe acute respiratory syndrome coronavirus 2, UniProt P0DTD1); RdRp-dependent reporter gene, GLuc reporter; HEK293T; 24 h).
`CC(C)n1c[n+](C(C)C)c2ccccc21.[Cl][Ag]` gave an IC50 of > 50 µM (rep main protease; enzyme activity, inhibitor).
